Results from different studies.
Compare with care: the assays were run in different laboratories. “And” joins repeats or separate records; there may be more than shown. ± gives the spread as reported.
ABCB1: ATP-dependent translocase ABCB1 (ABCB1, Homo sapiens, UniProt P08183)
Chain of UniProt P08183 (whole entry, looked up): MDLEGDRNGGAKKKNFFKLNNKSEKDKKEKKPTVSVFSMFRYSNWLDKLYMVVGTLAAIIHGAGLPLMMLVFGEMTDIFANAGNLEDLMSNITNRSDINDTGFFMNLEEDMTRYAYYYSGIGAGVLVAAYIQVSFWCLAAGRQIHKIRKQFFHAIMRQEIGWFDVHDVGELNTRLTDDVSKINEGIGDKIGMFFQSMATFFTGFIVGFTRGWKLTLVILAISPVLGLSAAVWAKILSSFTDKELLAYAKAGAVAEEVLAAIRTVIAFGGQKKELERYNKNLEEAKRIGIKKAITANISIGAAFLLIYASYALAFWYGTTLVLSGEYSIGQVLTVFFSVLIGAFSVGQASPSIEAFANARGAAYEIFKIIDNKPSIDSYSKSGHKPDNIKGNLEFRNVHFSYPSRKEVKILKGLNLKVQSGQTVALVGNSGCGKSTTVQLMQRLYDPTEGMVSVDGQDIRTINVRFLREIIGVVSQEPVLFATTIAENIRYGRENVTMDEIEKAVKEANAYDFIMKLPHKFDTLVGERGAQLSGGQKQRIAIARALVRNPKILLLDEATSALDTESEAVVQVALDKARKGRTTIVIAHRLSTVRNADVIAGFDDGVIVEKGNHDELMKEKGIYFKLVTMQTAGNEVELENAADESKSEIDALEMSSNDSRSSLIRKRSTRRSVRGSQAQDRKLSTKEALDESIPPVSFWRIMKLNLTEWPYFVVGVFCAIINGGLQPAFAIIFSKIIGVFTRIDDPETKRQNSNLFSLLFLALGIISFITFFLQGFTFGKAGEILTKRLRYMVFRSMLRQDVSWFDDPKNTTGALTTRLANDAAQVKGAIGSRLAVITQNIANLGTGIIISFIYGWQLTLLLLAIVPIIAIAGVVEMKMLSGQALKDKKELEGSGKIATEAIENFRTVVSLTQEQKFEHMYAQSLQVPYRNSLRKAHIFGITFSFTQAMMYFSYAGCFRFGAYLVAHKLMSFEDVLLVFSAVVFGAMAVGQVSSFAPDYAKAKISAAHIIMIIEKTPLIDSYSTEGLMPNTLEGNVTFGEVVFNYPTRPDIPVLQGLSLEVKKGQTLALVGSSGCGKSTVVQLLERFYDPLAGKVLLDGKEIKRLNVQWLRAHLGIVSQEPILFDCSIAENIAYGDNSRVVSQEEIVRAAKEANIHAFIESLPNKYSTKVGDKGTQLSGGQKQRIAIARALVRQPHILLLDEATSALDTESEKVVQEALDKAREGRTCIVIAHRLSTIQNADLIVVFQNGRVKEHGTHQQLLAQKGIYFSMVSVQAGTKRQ
Chain of UniProt P05771 (whole entry, looked up): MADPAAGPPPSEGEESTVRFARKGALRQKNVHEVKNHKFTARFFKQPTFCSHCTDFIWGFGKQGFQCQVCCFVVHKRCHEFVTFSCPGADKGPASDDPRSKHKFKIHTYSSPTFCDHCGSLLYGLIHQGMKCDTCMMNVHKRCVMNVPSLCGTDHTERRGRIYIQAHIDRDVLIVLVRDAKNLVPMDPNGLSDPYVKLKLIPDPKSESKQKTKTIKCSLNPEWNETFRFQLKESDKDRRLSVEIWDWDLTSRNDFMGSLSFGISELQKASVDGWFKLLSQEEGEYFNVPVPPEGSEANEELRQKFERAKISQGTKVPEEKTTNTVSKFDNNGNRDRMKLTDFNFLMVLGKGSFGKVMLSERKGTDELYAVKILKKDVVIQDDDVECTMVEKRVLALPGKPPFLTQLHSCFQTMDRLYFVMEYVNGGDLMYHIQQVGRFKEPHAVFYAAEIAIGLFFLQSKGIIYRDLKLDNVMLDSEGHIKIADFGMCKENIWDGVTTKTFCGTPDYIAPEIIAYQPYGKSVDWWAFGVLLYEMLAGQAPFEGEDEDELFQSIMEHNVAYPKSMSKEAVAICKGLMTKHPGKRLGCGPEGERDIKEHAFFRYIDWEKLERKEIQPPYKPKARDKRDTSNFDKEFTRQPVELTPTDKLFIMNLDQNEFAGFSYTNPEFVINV

SMILES	target or system	test	system	conditions	scale	quantity	result
O=C1NC2(CC2)COc2ncc(F)cc2[C@H]2COCCN2c2ccn3ncc1c3n2	–	–	Sprague-Dawley rat, female, serum	oral, 20 mg/kg/day, 4 weeks daily, end of recovery period	–	alanine aminotransferase activity	21 ± 4.5 U/L
O=C1NC(=O)c2c1c1cc(F)c[n+]3c1c1c2c2cc(O)ccc2[n]1[Ru-4]312([N]=C=S)[S+]3CC[S+]1CC[S+]2CC3 (stereo not shown)	Receptor-type tyrosine-protein kinase FLT3 (FLT3, Homo sapiens, UniProt P36888, D835Y)	enzyme activity	–	100 nM, human enzyme, together with: 10 µM ATP	relative to: untreated	remaining activity	-3%
C[C@@H](c1ccc2nccn2c1)n1nnc2ncc(-c3cn[nH]c3)nc21	human CYP3A4/5	inhibitor	pooled human liver microsomes	reversible inhibition, together with: testosterone substrate	–	IC50	20 µM
Cc1cc(-c2ccc3ccccc3c2)nnc1NCCN1CCN(C)CC1	ABCB1	transport, inhibitor	–	10000 nM	–	inhibition	4%
CS(C)(=O)=Nc1ccc(-c2ccc(-c3nc4cc(O[C@@H]5CO[C@H]6[C@@H]5OC[C@H]6O)[nH]c4cc3F)cc2)cc1	Protein kinase C beta type, isoform beta-II (PRKCB, Homo sapiens, UniProt P05771)	kinase activity	–	10 µM	–	inhibition	8%
COc1ccc(-n2cc(C(=O)N3C[C@]4(OC(=O)c5ccccc5NC(C)=O)CC[C@H](OC)[C@@]56[C@@H]4C[C@@H]([C@@H]35)[C@@]3(O)C[C@H](OC)[C@H]4C[C@@H]6[C@]3(O)[C@H]4OC)nn2)cc1	–	–	Sprague-Dawley rat, plasma	intravenous, 2 mg/kg, 0.167 h	–	plasma concentration	66.8 ng/mL
CNC(=O)CC1CN(C(=O)c2ccc(C(F)(F)F)cn2)CCN1C(=O)c1cccnn1 (stereo not shown)	Huh-7-ACE2	CellTiter-Glo	–	0.000191 µM, 48 h, unit not given	relative to: DMSO	viability	1.06 and 1.14 and 1.13
CC(C)(C)C(=O)OCOP(=O)(OCOC(=O)C(C)(C)C)C1CCCN(O)C1=O (stereo not shown)	UACC-257	–	–	–	–	GI50	1.19 µM
Cc1ccc(NS(=O)(=O)c2c(C(=O)N3CCCCCC3)c(C)n(C)c2C)c(Cl)c1	human cells	–	–	0.137 µM, 60 h	–	viability	98.4%
CC(=O)NCCCC[C@@H]1NC(=O)[C@H](Cc2c[nH]c3c(C)cccc23)NC(=O)[C@H]([C@@H](C)O)NC(=O)[C@H](CC(N)=O)NC(=O)[C@@H](NC(C)=O)C(C)(C)SSC(C)(C)[C@@H](C(=O)N[C@@H](Cc2ccc(OCCN)cc2)C(=O)N[C@@H](Cc2ccc3ccccc3c2)C(=O)NC2(C(=O)N[C@@H](CCC(=O)O)C(=O)N[C@@H](CC(N)=O)C(=O)N[C@@H](Cc3cccnc3)C(=O)N(C)CC(N)=O)CCOCC2)NC1=O	ABCB1	transport, inhibitor	LLC-PK1 cells	concentration not given, together with: [3H]digoxin	–	inhibition	no inhibition
COc1cc2c(cc1NC(=O)c1cncn1C)C[C@H]1[C@H]3CCCC[C@@]23CCN1C	–	–	C57BL/6 mouse, plasma	oral, 50 µg/g, 30 min	–	plasma concentration	8010 ng/mL
Cc1nc2cccc(OCC(C)(C)C(=O)NC(C)C)c2c(N)c1C(=O)[O-].[Na+]	Salmonella typhimurium	–	TA1537	5.0 mg per plate, without S9, preincubation	–	revertant colonies per plate	6 ± 4
COc1ccccc1-c1n[nH]c2nc(NC3CCN(C(=O)Cc4ccc(F)cc4F)CC3)ncc12	–	bead binding, competition bead pull-down, item: LMJF.21.0810	Leishmania donovani axenic amastigote extract	10 µM	relative to: vehicle	relative abundance	1.03

Excerpt of the above:
SMILES	target or system	test	system	conditions	scale	quantity	result
O=C1NC2(CC2)COc2ncc(F)cc2[C@H]2COCCN2c2ccn3ncc1c3n2	–	–	Sprague-Dawley rat, female, serum	oral, 20 mg/kg/day, 4 weeks daily, end of recovery period	–	alanine aminotransferase activity	21 ± 4.5 U/L
